Measurements of several laboratories.
Compare with care: the assays were run in different laboratories. ± gives the spread as reported. In brackets after ≈: the same amount, converted by molar mass.

`O=C(NC(=O)c1c(F)cccc1F)Nc1ccc(Cl)cc1` has a mortality of 53.3 ± 3.8% (Ostrinia furnacalis; leaf dipping; 200 mg/L, 96 h).
`NC(=NCc1ccccc1)NC(=O)c1nc(Cl)c(N)nc1N` has an IC50 of 3.98 µM (Plasmodium falciparum; W2).
For `NCCCC[C@H]1NC(=O)[C@H](Cc2ccccc2)NC(=O)[C@H](Cc2c[nH]c3ccccc23)NC(=O)[C@@H](Cc2ccccc2)NC(=O)[C@H](Cc2ccccc2)NC(=O)[C@@H](CCCN)NC(=O)[C@H](CCCN)NC1=O`, the IC50 was > 16 µg/mL (Acanthamoeba castellanii; trophozoites).
Under “LS mean difference vs placebo”, `CS(=O)(=O)CCCn1c(Cn2c(=O)n(CC(F)(F)F)c3ccncc32)cc2cc(Cl)ccc21` is recorded as 0.15 log10 copies/mL (respiratory syncytial virus; RT-qPCR; hospitalized infants 1-24 months, nasal swab; oral, 1-9 mg/kg daily, day 28, all doses combined; reference: placebo).
`O=C(NN=Cc1ccc(O)c(Br)c1)c1cccc(Br)c1`: “MIC in combination” 0.063 µg/mL (Cryptococcus neoformans; concentration not given, with: fluconazole).
With `C[C@@H](O)[C@@H]1NC(=O)[C@@H](CCCCN)NC(=O)[C@H](CCCN)NC(=O)[C@@H](CCCN)NC(=O)[C@H](CO)NC(=O)[C@H](Cc2c[nH]c3ccccc23)NC(=O)[C@@H](Cc2c[nH]c3ccccc23)NC1=O` the IC50 was > 16 µg/mL (Acanthamoeba castellanii; trophozoites).
With `CCCCCCCCCC(=O)N[C@@H](Cc1c[nH]c2ccccc12)C(=O)N[C@H](CC(N)=O)C(=O)N[C@@H](CC(=O)O)C(=O)N[C@@H]1C(=O)NCC(=O)N[C@@H](CCCN)C(=O)N[C@@H](CC(=O)O)C(=O)N[C@H](C)C(=O)N[C@@H](CC(=O)O)C(=O)NCC(=O)N[C@H](CO)C(=O)N[C@@H]([C@H](C)CC(=O)O)C(=O)N[C@@H](CC(=O)c2ccccc2N)C(=O)O[C@@H]1C` the MIC90 was 0.125 µg/mL (≈ 0.0771 µM) (Streptococcus pneumoniae).
With `C#Cc1ccc(C=NNC(=O)c2ccc(Br)cc2Br)c(O)c1` the FICI was 0.56 (Candida albicans; A39; unit not given, with: caspofungin; lower = more synergy).
For `CN(C)CCCN1c2ccccc2CCc2ccccc21`, the IC50 was 12.6 µM (Plasmodium falciparum; HB3).
The inhibition of `Oc1ccc(-c2nc(-c3ccc(Oc4ccccc4CBr)cc3)no2)cc1` is reported as 14 to 39% (Clostridioides difficile; spore germination; ATCC 43255; 45 µM, 1 h).
For `CC(C)C[C@H]1NC(=O)[C@H]([C@@H](C)O)NC(=O)[C@@H](CCCN)NC(=O)[C@H](CCCNC(=N)N)NC(=O)[C@@H](Cc2ccccc2)NC1=O`, the IC50 was > 16 µg/mL (Naegleria fowleri; trophozoites).
For `Cc1ccc2[nH]c3c(c2c1)CCCC3NCCc1ccc(F)cc1` (centres unmarked), “MIC fold change” read 4 (Streptococcus pneumoniae; concentration not given, 10% fetal bovine serum; reference: without serum).
The EC50 of `CSc1nc2nc(C)c(Cc3cccc(C(F)(F)F)c3)c(C)n2n1` is reported as 1.84 ± 0.15 µM (Plasmodium falciparum; parasite growth, SYBR Green; 3D7 DHODH E182D; 72 h).
`Cn1c(=O)ccc2ccc(F)c(CCNC[C@H]3CN(c4cnc5c(n4)NC(=O)CO5)C(=O)O3)c21` has an MIC90 of 2 µg/mL (≈ 4.27 µM) (Providencia spp.).
For `CC(C)C(NC(=O)Cc1cccc2ccccc12)C(=O)Nc1cccc(C#N)c1` (centres unmarked), the EC50 was 10.5 ± 2.8 µM (Plasmodium falciparum; parasite growth, SYBR Green; 3D7 DHODH E182D; 72 h).
`C#Cc1ccc(O)c(C=NNC(=O)c2ccc(Br)c(Br)c2)c1` has an FICI of 1.12 (Cryptococcus neoformans; H99; unit not given, with: fluconazole; lower = more synergy).
`CCN(CC)CCO[C@H]1CC[C@@]2(C)C(=CC[C@@H]3[C@@H]2CC[C@]2(C)C(=O)CC[C@@H]32)C1` gave an EC90 of 11.7 µM (human rotavirus; viral replication, focus reduction; MA104, Wa).
`C#Cc1cccc(C=NNC(=O)c2ccc(Br)c(Br)c2)c1O` gave an FICI of 0.75 (Cryptococcus neoformans; H99; unit not given, with: fluconazole; lower = more synergy).
For `N=C(N)NC(=O)Cc1c(Cl)cccc1Cl`, the IC50 was 2.51 µM (Plasmodium falciparum; W2).
`CC(C)[C@@H]1NC(=O)[C@@H](CCCCN)NC(=O)[C@H]([C@@H](C)O)NC(=O)[C@@H](CCCCN)NC(=O)[C@H](Cc2c[nH]c3ccccc23)NC(=O)[C@@H](C)NC(=O)[C@@H](C(C)C)NC(=O)[C@@H](C)NC(=O)[C@H](Cc2c[nH]c3ccccc23)NC(=O)[C@@H](Cc2c[nH]c3ccccc23)NC1=O` has an IC50 of > 16 µg/mL (Naegleria fowleri; trophozoites).
For `COc1cc(N[C@H](C(=O)c2c[nH]c3ccc(OC(F)(F)F)cc23)c2ccc(Cl)cc2OC)cc(S(C)(=O)=O)c1`, the inhibition was 100% (dengue virus 2; viral infection, luciferase reporter virus; 3 nM, 48 h).
`COC(=O)NC(=S)Nc1ccccc1NC(=S)NC(=O)OC` gave an EC95 of > 400 µg/mL (Botrytis cinerea; lesion diameter; B05.10, cucumber seedlings; spray, 3 days, 20 °C).
`CNCCC(Oc1ccccc1OC)c1ccccc1` (centres unmarked) has an IC50 of 0.794 µM (Plasmodium falciparum; W2).
With `CC1(C)SC2C(NC(=O)C(NC(=O)C3=C(O)C(Cc4ccsc4)NC3=O)c3ccccc3)C(=O)N2C1C(=O)O` (centres unmarked) the MIC was 25 µg/mL (≈ 43.8 µM) (Escherichia coli; broth microdilution; Keio mutant JW2142-1).
`CNC(=O)c1cc(Cl)cc(C)c1NC(=O)c1cc(Br)nn1-c1ncccc1Cl` gave a mortality of 10% (Spodoptera litura; leaf-dip; third instar larvae; 12.5 ppm, 24 h).
With `C[C@H]1c2cccc(O)c2C(=O)C2=C(O)[C@]3(O)C(=O)C(C(N)=O)=C(O)[C@@H](N(C)C)[C@@H]3[C@@H](O)[C@@H]21` the MIC90 was 8 µg/mL (≈ 18 µM) (Streptococcus pneumoniae).
`COc1ccccc1Cn1ccnc1SCC(=O)Nc1cc(C(F)(F)F)ccc1Cl` has an EC50 of 0.0489 ± 0.018 µM (Plasmodium falciparum; parasite growth, SYBR Green; 3D7 wild type; 72 h).
`CC(C)[C@H]1NC(=O)[C@H](Cc2ccccc2)NC(=O)[C@@H](Cc2c[nH]c3ccccc23)NC(=O)[C@H](CCCNC(=N)N)NC(=O)[C@@H](CCCN)NC(=O)[C@H](CC(N)=O)NC1=O` gave an IC50 of > 16 µg/mL (Acanthamoeba castellanii; trophozoites).
`Cc1nc(Nc2ccc(C)c(Cl)c2)c2c(C)noc2n1` gave an EC50 of 6.32 ± 3.2 µM (Plasmodium falciparum; parasite growth).
For `C#Cc1ccc(C=NNC(=O)c2ccc(COC)cc2)c(O)c1`, the FICI was 1 (Cryptococcus neoformans; H99; unit not given, with: fluconazole; lower = more synergy).
For `CC[C@H](C)[C@H](NC(=O)[C@H](C)NC(=O)[C@H](CCCCN)NC(=O)[C@H](CC(C)C)NC(=O)[C@H](C)NC(=O)[C@@H](NC(=O)[C@H](Cc1c[nH]cn1)NC(=O)[C@H](CC(C)C)NC(=O)[C@@H](NC(=O)[C@@H](NC(=O)[C@H](CCCCN)NC(=O)[C@H](C)NC(=O)[C@H](C)NC(=O)[C@H](CO)NC(=O)[C@H](CCCCN)NC(=O)[C@H](Cc1ccccc1)NC(=O)[C@@H](NC(=O)[C@H](CCCCN)NC(=O)[C@H](CC(C)C)NC(=O)[C@H](Cc1ccccc1)NC(=O)[C@H](CO)NC(=O)[C@H](CCCCN)NC(=O)[C@H](Cc1c[nH]c2ccccc12)NC(=O)[C@H](CCCCN)NC(C)=O)[C@@H](C)O)[C@@H](C)O)C(C)C)[C@@H](C)O)C(=O)N[C@@H](CO)C(=O)N[C@@H](CO)C(N)=O`, the MIC50 was 32 µg/mL (≈ 10.9 µM) (Streptococcus pyogenes; erythromycin-sensitive; 21 strains).
The IC50 of `C[C@@H]1CC[C@H]2[C@@H](C)C(=O)O[C@@H]3O[C@@]4(C)CC[C@@H]1[C@]32OO4` is reported as 0.015 µM (Plasmodium falciparum; D10).
`Cc1cc(Cl)cc(S(C)(=O)=O)c1NC(=O)c1cc(Br)nn1-c1ncccc1Cl` has a mortality of 0% (Spodoptera litura; leaf-dip; third instar larvae; 12.5 ppm, 24 h).
`CC(C)C[C@@H]1NC(=O)CNC(=O)[C@@H](Cc2ccccc2)NC(=O)[C@H](CCCCN)NC(=O)[C@@H](CCCN)NC(=O)[C@@H](C(C)C)NC1=O` gave an IC50 of > 16 µg/mL (Acanthamoeba castellanii; trophozoites).
The fold enrichment of `Nc1ncnc2c1ncn2[C@@H]1O[C@@H]2COP(=O)(O)O[C@H]3[C@@H](O)[C@H](n4cnc5c(=O)[nH]cnc54)O[C@@H]3COP(=O)(O)O[C@H]2[C@H]1O` is reported as 9.64 (West Nile virus; RNA sequencing, measured: trimerization, collagen chain, R-HSA-8948216; HFF-1 cells; concentration not given, downregulated pathway; reference: WNV-infected untreated cells).
With `CCCCCC[C@H]1C(=O)O[C@H](C)[C@H](NC(=O)c2cccc(NC=O)c2O)C(=O)O[C@@H](C)[C@@H]1OC(=O)CC(C)C` the IC50 was 0.023 µM (Human alphaherpesvirus 1; viral replication; Vero C1008).
The median survival of `C[C@@H]1[C@H](O)[C@@H](C)/C=C/C=C/C=C/C=C/C=C/C=C/C=C/[C@H](O[C@@H]2O[C@H](C)[C@@H](O)[C@H](N)[C@@H]2O)C[C@@H]2O[C@](O)(C[C@@H](O)C[C@@H](O)[C@H](O)CC[C@@H](O)C[C@@H](O)CC(=O)O[C@H]1C)C[C@H](O)[C@H]2C(=O)O` is reported as 4 days (Cryptococcus neoformans; Galleria mellonella larvae; 1 mg/kg single dose).
`Oc1ccc(-c2nc(N3CCN(c4ccccc4)CC3)no2)cc1` has an inhibition of 14 to 39% (Clostridioides difficile; spore germination; ATCC 43255; 45 µM, 1 h).
`CCC(c1ccccc1)c1nn2c(-c3cccs3)nnc2s1` (centres unmarked) has an EC50 ratio of 2.9 (Plasmodium falciparum; parasite growth, SYBR Green; 72 h; reference: 3D7-E182D over 3D7).
`COC(=O)c1ccc2c(ccc3oc([N+](=O)[O-])cc32)c1` gave an MIC90 of > 32 µg/mL (Klebsiella pneumoniae; REMA).
With `CN1[C@@H]2CC[C@H]1C[C@@H](OC(=O)c1cc(Cl)cc(Cl)c1)C2` the IC50 was 12.6 µM (Plasmodium falciparum; HB3).

Some of these lines once more:
`NC(=NCc1ccccc1)NC(=O)c1nc(Cl)c(N)nc1N` has an IC50 of 3.98 µM (Plasmodium falciparum; W2).
With `CC1(C)SC2C(NC(=O)C(NC(=O)C3=C(O)C(Cc4ccsc4)NC3=O)c3ccccc3)C(=O)N2C1C(=O)O` (centres unmarked) the MIC was 25 µg/mL (≈ 43.8 µM) (Escherichia coli; broth microdilution; Keio mutant JW2142-1).
The fold enrichment of `Nc1ncnc2c1ncn2[C@@H]1O[C@@H]2COP(=O)(O)O[C@H]3[C@@H](O)[C@H](n4cnc5c(=O)[nH]cnc54)O[C@@H]3COP(=O)(O)O[C@H]2[C@H]1O` is reported as 9.64 (West Nile virus; RNA sequencing, measured: trimerization, collagen chain, R-HSA-8948216; HFF-1 cells; concentration not given, downregulated pathway; reference: WNV-infected untreated cells).
With `CCCCCCCCCC(=O)N[C@@H](Cc1c[nH]c2ccccc12)C(=O)N[C@H](CC(N)=O)C(=O)N[C@@H](CC(=O)O)C(=O)N[C@@H]1C(=O)NCC(=O)N[C@@H](CCCN)C(=O)N[C@@H](CC(=O)O)C(=O)N[C@H](C)C(=O)N[C@@H](CC(=O)O)C(=O)NCC(=O)N[C@H](CO)C(=O)N[C@@H]([C@H](C)CC(=O)O)C(=O)N[C@@H](CC(=O)c2ccccc2N)C(=O)O[C@@H]1C` the MIC90 was 0.125 µg/mL (≈ 0.0771 µM) (Streptococcus pneumoniae).
